Measured values from different studies.
Every numbered part comes from another study and shows a few of its results, in no order. Positions count from the first letter of the parent shown.

Series 1
Target: TAR DNA-binding protein 43, full length, His tag (TARDBP, Homo sapiens, UniProt Q13148, residues 1-414)
Method: RNA Bind-n-Seq
Molecule type: RNA
Matrix: in vitro
Concentration: 20 nM
Notes: 6-mer, flanks averaged, single round
With: 150 mM KCl
Relative to: input library
Reading: higher = stronger binding
Oligonucleotide | 6-mer enrichment (R)
AUUAAU | 0.616
CGCAGC | 0.872
AUCGCC | 0.619
CUUGCC | 0.646
UUUUCC | 0.638
GUCGGA | 1.36
GCUGAC | 0.846
GAUCUA | 0.602
AAGCCC | 0.637
AGGGUU | 1.71
CAUAUU | 0.599
ACGCCG | 0.85
ACAGAG | 1.04
UAAAGC | 0.629
UAAUCG | 0.61
GCUGCG | 1.53
UUGUUU | 0.745
CUGUGA | 0.781
CACAAG | 0.758
CGGCUA | 0.824
CAGGCU | 0.805
GGCACC | 1.1
CCGGCU | 0.79
UUAGUU | 0.616
GCCAUU | 0.664

Series 2
Target: Ras GTPase-activating protein-binding protein 1, full length (G3BP1, Homo sapiens, UniProt Q13283)
UniProt Q13283, sequence (whole entry, looked up): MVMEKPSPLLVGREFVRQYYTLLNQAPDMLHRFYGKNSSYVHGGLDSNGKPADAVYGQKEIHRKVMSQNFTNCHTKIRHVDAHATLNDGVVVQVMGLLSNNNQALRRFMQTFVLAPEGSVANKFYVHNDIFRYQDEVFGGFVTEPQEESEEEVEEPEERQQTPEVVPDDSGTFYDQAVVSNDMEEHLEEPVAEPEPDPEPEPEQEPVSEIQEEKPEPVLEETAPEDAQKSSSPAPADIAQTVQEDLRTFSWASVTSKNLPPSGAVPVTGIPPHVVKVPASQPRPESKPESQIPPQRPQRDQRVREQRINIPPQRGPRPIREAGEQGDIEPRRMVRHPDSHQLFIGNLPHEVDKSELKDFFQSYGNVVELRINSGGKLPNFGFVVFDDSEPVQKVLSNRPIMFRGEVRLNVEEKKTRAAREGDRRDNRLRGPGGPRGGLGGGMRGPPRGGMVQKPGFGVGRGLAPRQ
Method: RNA Bind-n-Seq
Molecule type: RNA
Matrix: in vitro
Concentration: 200 nM
Notes: whole 134-nt RNA, ends assumed
With: 150 mM LiCl
Relative to: input library
Reading: higher = stronger binding
Each molecule: 7-deaza-guanosine replaces G
Constant ends, left off below: GGGAGUUCUACAGUCCGACGAUC … UGGAAUUCUCGGGUGUCAAGG
Oligonucleotide | log2 enrichment
AGUCCUGUGCUACACAUCGUAUGUACCGAAUCGGGGUGGGGUUUUUUUGGGGAGGGGAAAGUAUUAUGUUACGCCGUUCGGAUCUGCACU | 0.788
CCUGUGCUACACAUCGUAUGUACCGAAUCGGGGUGGGGAAAAAAAGGGGUUUUUUUGGGGAAAGUAUUAUGUUACGCCGUUCGGAUCUGC | -0.0574
CUCAAGUCCUGUGCUACACAUCGUAUGUACCGAAUCGGUUGGGGUUGGGUUGGAAAGUAUUAUGUUACGCCGUUCGGAUCUGCACUUCCA | 0.476
UCAAGUCCUGUGCUACACAUCGUAUGUACCGAAUCGGCCCGGCCCGGGGCCCGGGAAAGUAUUAUGUUACGCCGUUCGGAUCUGCACUUC | -0.666
CUCAAGUCCUGUGCUACACAUCGUAUGUACCGAAUCGGGGUUGGGGUUGGUUGGAAAGUAUUAUGUUACGCCGUUCGGAUCUGCACUUCC | -0.0138
CCUGUGCUACACAUCGUAUGUACCGAAUCGGGUUUUUUGGGUUUUUUGGGUUUUUUGGGGAAAGUAUUAUGUUACGCCGUUCGGAUCUGC | -0.553
ACCAUGCAUGUGGGCAUCUUUGGGAAGUGGGGCAAGGGGGGGAUAGGGAGGGGGGUAACACUUUGGGAACAGGUGGUCCCAGGUCGUUUC | 0.0794
CCUGUGCUACACAUCGUAUGUACCGAAUCAAAUUUUUUUAAACCCCCCCAAAUUUUUAAAAAAGUAUUAUGUUACGCCGUUCGGAUCUGC | 0.78
GUCCUGUGCUACACAUCGUAUGUACCGAAUCGGUUUUUUUGGAAAAAAAGGUUUUUGGAAAGUAUUAUGUUACGCCGUUCGGAUCUGCAC | -3.1
CUCAAGUCCUGUGCUACACAUCGUAUGUACCGAAUCGGGAAGGGAAGGGGAAGGAAAGUAUUAUGUUACGCCGUUCGGAUCUGCACUUCC | -0.0988
GUCCUGUGCUACACAUCGUAUGUACCGAAUCGGGUUUUUGGUUUUUGGGGUUUUUGGGGAAAGUAUUAUGUUACGCCGUUCGGAUCUGCA | -0.352

Series 3
Target: Histone acetyltransferase KAT6A, winged helix 1, GST fusion (KAT6A, Homo sapiens, UniProt Q92794, residues 1-85)
Method: protein binding microarray
Molecule type: double-stranded DNA, one strand shown
Matrix: in vitro
Concentration: not given
Notes: 8-mer, flanks averaged, mean of 2 arrays, mostly near background
Relative to: not given
Reading: higher = stronger binding
Construct (chain): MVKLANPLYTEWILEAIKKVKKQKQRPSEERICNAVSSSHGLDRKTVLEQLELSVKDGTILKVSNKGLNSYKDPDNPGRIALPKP
Oligonucleotide | E-score
CATCTGAA | -0.188
AGAAATCT | -0.0813
ATCACTTC | -0.157
TCCCAAAA | -0.201
ATTTTTCC | -0.0388
ATTAGAAA | -0.166
TCGAGCAA | -0.0648
CTTTGGTC | -0.194
CAGTTTGG | -0.155
CTTAAGAC | 0.105
TGACTTAA | -0.129
CGTCAGAA | -0.164
AAACCTCC | -0.163
GGGCGCCA | 0.202
ACATGCCT | -0.0167
GATACCTA | -0.0749
CTAGTCGA | -0.138
AATGATCA | -0.0552
AATAACCC | 0.0478
ACTATGCT | -0.286

Series 4
Target: ABI1, truncated, D143A, DHFR fusion (Arabidopsis thaliana)
Method: DHFR PCA, deep sequencing
Matrix: yeast
Notes: methotrexate growth selection, single substitutions
With: (+)-ABA 710 µM
Relative to: wild-type fitted maximum
Reading: higher = stronger binding
Starting sequence: PYL1, truncated, DHFR fusion (Arabidopsis thaliana); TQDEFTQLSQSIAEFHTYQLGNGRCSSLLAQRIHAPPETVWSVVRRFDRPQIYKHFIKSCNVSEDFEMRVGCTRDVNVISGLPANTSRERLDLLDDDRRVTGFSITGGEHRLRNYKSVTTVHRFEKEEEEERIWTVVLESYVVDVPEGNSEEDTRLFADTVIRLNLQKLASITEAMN
Variant | relative binding score [%]
L82I | 106
E174F | 83.8
V161Q | 36.1
S80E | 66.5
E89K | -20
P83E | 85.6
V143G | 23.7
Q2C | 104
K58A | 100
N22R | 103
F56C | 92.6
F5C | 106
T6K | 112
K54V | -8.6
V137A | 71.6
T106Q | 106
V70Q | 86.3
Q167G | 99.9
M176I | 93.4
I52M | 95
Y115F | 103

Series 5
Target: RNA binding protein fox-1 homolog 2, RRM domain, GST-SBP tag (RBFOX2, Homo sapiens, UniProt O43251-10, residues 100-194)
Method: RNA Bind-n-Seq
Molecule type: RNA
Matrix: in vitro
Concentration: 365 nM
Notes: natural RNA segment, single round, ends assumed
Relative to: no-protein control
Reading: higher = stronger binding
Constant ends, left off below: GGGAGUUCUACAGUCCGACGAUC … UGGAAUUCUCGGGUGCCAA
Residues (chain): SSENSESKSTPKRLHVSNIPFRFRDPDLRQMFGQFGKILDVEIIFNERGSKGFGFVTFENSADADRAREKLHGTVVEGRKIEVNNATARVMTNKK
Oligonucleotide | RBNS enrichment (R)
CACCCAUUAAGUGGCUGCUGACUUAAAUGUGCUGGAACCAGCUGCUGAAGGUGGGGCCUAGGGAGGGGGCACUGAAGCAAUCUCCUGCUCCAACGCACAAUCCUUACUGU | 0.832
CACUACACAUAAAUCUCAUAAUCUUUUUGUCUUUGGAGAUUCCAUUGUGGACAGUAAUACGCAGUUACAGGGUGUAGUCUGUUUAGAAUCCGUAGUUUGUGGGUAUCAGU | 0.531
GCUAUCGCAGACCCACCUGACUGUGGAAUAUAAAAUUGCCAAAUAUCCUUUCUCAUGGAAGCGCGUACCCGUUCGUGGAGGAAACGGAACGGCAGCCCAGCCGUGGGACG | 0.312
UUUGUGGAAUCCCGUAAGCGUAGAAUACCAAGUUUAGUGACUAUUUAAACUGGGCUGAGGCUGGUAAGACUAUAAAGCAGUGGCCCAUAAGGACUCUUAAGCGUGAGGCC | 0.621
GGCCUGGGAUGGGCCAGGCUGGUCCUGGCUGCCUGUUCCCUGUGCUCUUCAGAAUUACUGUUUUUGUUUCCUUUUACCCCAGCUGCCAUUAAAGCCCAAACCUCUAGCCC | 1.41
CCCAGCUGCACACACACACCAUGCUCUCGCCCUGCUGUAACCUCUGUCUUGGCAGGGCUGUCCCCUCUUGCUUCUCCUUGCAUGAGCUGGAGGGCCUGUGUGAGUUACGC | 0.706
ACUUAUACCCUUGUAAAACUUGUCAUCUAUGCAAUAAAGCAGUUGAUUUUUCUGUGGAUGCCAUGGAGUUCUGUUUGCCUUUGUUGUUUUUGUUGUUGCUGUUUUAUUUU | 0.487
UUGCACCAAAGAGAUAUGGAGACAUAAACCUGUAAUGAAUGAGGCUGGGCUUUUCUGUAAUAAGCUUCCUUUUAUAAUACUGGUCAGCUUAGCUCUCUCAGAUCCUAUCC | 0.352
CCUGUUGGCCAAGGAGAAUUUCUGCGGUGGGAGGCAGUGCUCUGCUAGUCAGGAUUGAUAAACAGCUGGGCACACCGAAACAGUGUACCAACGAAUUCACCAACCAGGGG | 0.292
AUCACAGUCUUGACAAAAUUCCUUUUCCCUAAAGCACACUUUGACAUUGUCACAUUAUUGACACAGUAAUUAGAAACCCACUGUGGCCUCUUCAGGAGUGUGCUUAUGUC | 0.44
AAUGGGGCCAGCUGAUUAAAGAAAAAGAACCCCCACACAACAGGACUGUCAGGACAGAUUGAGUUAACCCCUCAAGCCAAGUCCCGGGUGUCAGGAACAGUUGUCCAUGC | 0.569
CAAGUGCUUUACCCCCGAACUACACCUGAAGCUCCAUUCCUUGUCCCUUCUGCACCAUUUAAAGGUGGGAACUAUAUUUUGACUUUAUCUACCUCUGAGAAAGAGGAAAA | 0.558

For quick reference, copied from above (series 1):
Oligonucleotide | 6-mer enrichment (R)
GUCGGA | 1.36
AUUAAU | 0.616
CUGUGA | 0.781
GCUGAC | 0.846
AGGGUU | 1.71
